Results gathered from unrelated publications.
Compare with care: the assays were run in different laboratories. Several values in a cell are separate wells, animals, samples, runs or records. ± marks the error that the study gave.
FLP: Female-specific lacrimal gland protein (FLP, Mesocricetus auratus, UniProt Q99MG7)
SHMT1: Serine hydroxymethyltransferase, cytosolic (SHMT1, Homo sapiens, UniProt P34896)
CYP2E1: Cytochrome P450 2E1 (CYP2E1, Homo sapiens, UniProt P05181)
Lrrk2: Leucine-rich repeat serine/threonine-protein kinase 2 (Lrrk2, Mus musculus, UniProt Q5S006)
sfhI: sfhI (Serratia fonticola, UniProt Q9RMI1)

Sc1ncccn1  Ki (uracil transporter; uracil uptake, inhibitor; Trypanosoma brucei brucei, bloodstream form; 30 s, with: 0.15 µM [3H]-uracil): 1640 ± 510 µM
CCCCCCCCCCO  Ki (FLP; binding, fluorescence displacement; with: 1-NPN 2 µM): 1.83 µM
O=c1c(-c2ccc(O)cc2)coc2cc(O)cc(O)c12  Ki (CNGA1 (Bos taurus, UniProt Q00194); ion current, inhibitor, inside-out patch clamp; Xenopus oocytes; fully activated channels, with: cGMP 2 mM): 72.5 µM
[I-].[K+]  Kd (SLC4A1 (Homo sapiens, UniProt P02730); Cl- exchange, inhibitor, 36Cl flux, two-site model; erythrocytes; pH 12, only site D protonated, unbuffered point excluded): 13000 µM
Nc1nc2[nH]c(CCCc3ccc(C(=O)N[C@@H](CCC(=O)O)C(=O)O)s3)cc2c(=O)[nH]1  Ki (SHMT1; enzyme activity, inhibitor, fluorescence): 112 µM
CCCN(CCC1(O)CC(NS(=O)(=O)c2ccc(F)c(F)c2)C1)[C@H]1CCc2nc(N)sc2C1 (stereo in doubt)  Ki (dopamine D2-like receptor, rat; radioligand binding; rat striatal membranes; high-affinity component, with: [3H]spiperone): 0.057 ± 0.0074 µM
C=CCc1ccc(O)c(OC)c1  Ki (FLP; binding, fluorescence displacement; with: 1-NPN 2 µM): 1.69 µM
CCCN(CCC1(O)CC(NC(=O)c2ccc(F)cc2)C1)[C@H]1CCc2nc(N)sc2C1 (stereo in doubt)  Ki (dopamine D2-like receptor, rat; radioligand binding; rat striatal membranes; high-affinity component, with: [3H]spiperone): 0.367 ± 0.027 µM
CCCCCCCCCCCC=O  Ki (CYP2E1; competitive inhibitor; human liver S9; 30 min, pH 7.4, with: p-nitrophenol substrate): 85 ± 8 µM
O=C1C=CNC(=O)C1  Ki (uracil transporter; uracil uptake, inhibitor; Trypanosoma brucei brucei, bloodstream form; 30 s, with: 0.15 µM [3H]-uracil): > 5000 µM
Fc1ccc(N2CCN(CCCCn3ccc4ccccc43)CC2)cc1  Ki (Tmem97 (Rattus norvegicus, UniProt Q5U3Y7); ligand displacement, radioligand): 0.0133 µM
CSCC[C@H](NC(=O)[C@H](CO)NC(=O)[C@H](Cc1ccc(O)cc1)NC(=O)[C@H](CO)NC(C)=O)C(=O)N[C@@H](CCC(=O)O)C(=O)N[C@@H](Cc1c[nH]cn1)C(=O)N[C@@H](Cc1ccccc1)C(=O)N[C@@H](CCCNC(=N)N)C(=O)N[C@@H](Cc1c[nH]c2ccccc12)C(=O)N[C@@H](C)C(=O)N[C@@H](CCCCN)C(=O)N1CCC[C@H]1C(=O)N[C@H](C(N)=O)C(C)C  EC50 (Melanocortin receptor 5 (Mus musculus, UniProt P41149)): 0.041 ± 0.017 µM
CCCN(CC[C@]1(O)C[C@@H](NC(=O)c2cccc(-c3noc(C)n3)c2)C1)[C@H]1CCc2nc(N)sc2C1 (relative stereo)  Ki (dopamine D2-like receptor, rat; radioligand binding; rat striatal membranes; high-affinity component, with: [3H]spiperone): 15.8 ± 5.91 µM
O=C(O)c1cccc(O)c1O  Ki (Enterobactin synthase component B (entB, Escherichia coli, UniProt P0ADI4); isochorismatase activity, inhibitor, LDH-coupled): 200 µM and ~200 µM
O=C(O[C@@H]1Cc2c(O)cc(O)cc2O[C@@H]1c1cc(O)c(O)c(O)c1)c1cc(O)c(O)c(O)c1  Ki (SLC22A8 (Homo sapiens, UniProt Q8TCC7); transporter uptake, inhibitor): 162 µM
COc1nccnc1CC(C)C  Ki (FLP; binding, fluorescence displacement; with: 1-NPN 2 µM): 1.96 µM
O=c1[nH]cc(Br)c(=O)[nH]1  Ki (uracil transporter; uracil uptake, inhibitor; Trypanosoma brucei brucei, bloodstream form; 30 s, with: 0.15 µM [3H]-uracil): 180 ± 36 µM
CCCCCCCCCCCO  Ki (FLP; binding, fluorescence displacement; with: 1-NPN 2 µM): 0.78 µM
Nc1ccc(N=Nc2ccc(-c3ccc(N=Nc4ccc(N)c5ccc(S(=O)(=O)O)cc45)cc3)cc2)c2cc(S(=O)(=O)O)ccc12  Ki (SLC7A11 (Homo sapiens, UniProt Q9UPY5); transporter uptake, inhibitor, radiometric): 4.3 µM
O=c1[nH]cc(Cl)c(=O)[nH]1  Ki (uracil transporter; uracil uptake, inhibitor; Trypanosoma brucei brucei, bloodstream form; 30 s, with: 0.15 µM [3H]-uracil): 560 ± 180 µM
CC[N+](CC)(CC)CC  Ki (Sh (Drosophila melanogaster, UniProt P08510, C301S/C308S/del6-46); potassium current, blocker, voltage clamp; Xenopus oocytes; 50 mV holding potential): 33500 ± 8900 µM
CCCN(CCC1(O)CC(NS(=O)(=O)c2cccc(F)c2)C1)[C@H]1CCc2nc(N)sc2C1 (stereo in doubt)  Ki (dopamine D2-like receptor, rat; radioligand binding; rat striatal membranes; high-affinity component, with: [3H]spiperone): 0.11 ± 0.014 µM
CC1=NN(c2ccc(S(=O)(=O)O)cc2)C(=O)C1  Ki (Ubiquitin-associated and SH3 domain-containing protein B, phosphatase domain (UBASH3B, Homo sapiens, UniProt Q8TF42); phosphatase activity, competitive inhibitor; with: pNPP): 48 µM and 48.3 µM
O=C(O)c1cc(/N=N/c2ccc(S(=O)(=O)Nc3ccccn3)cc2)ccc1O  half-life (Abcg2 (Rattus norvegicus, UniProt Q80W57); male Sprague-Dawley rat, plasma; oral, 2 mg/kg): 2.3 h
NCCCNc1ncnc2c1ncn2[C@@H]1O[C@H](CN(CC#Cc2cccc(C(N)=O)c2)CC[C@H](N)C(=O)O)[C@@H](O)[C@H]1O  Ki (NNMT (Homo sapiens, UniProt P40261); enzyme activity, inhibitor, fluorescence): 0.21 µM
Nc1ncnc2c1ncn2[C@@H]1O[C@H](COP(=O)(O)OP(=O)(O)NP(=O)(O)O)[C@@H](O)[C@H]1O  Ki (Lrrk2; enzyme activity, inhibitor, radiometric; Ki,e, with: LRRKtide substrate varied): 700 ± 100 µM
OB(O)c1ccc(/N=N/c2ccccc2)cc1  Ki (Calcium release-activated calcium channel protein 1, with STIM1 (ORAI1, Homo sapiens, UniProt Q96D31); CRAC current, inhibitor, whole-cell patch clamp; HEK293 expressing STIM1 and ORAI1): 131 ± 24 µM
Nc1ncnc2c1ncn2[C@@H]1O[C@H](COP(=O)(O)O)[C@@H](O)[C@H]1O  Ki (Lrrk2; enzyme activity, inhibitor): 2200 µM
OC1CCCc2cc(OCc3ccc(Cl)cc3)ccc21 (stereo not drawn)  Ki (MAOB (Homo sapiens, UniProt P27338); enzyme activity, inhibitor): 0.0065 µM
[Ca+2]  Ki (Cyclic nucleotide-gated channel alpha-2 (CNGA2, Bos taurus, UniProt Q03041); single-channel current, blocker, outside-out patch; wild type, -80 mV, with: cGMP 5 µM): 31 µM
CCCCCCC/C=C/C=O  Ki (CYP2E1; competitive inhibitor; human liver S9; 30 min, pH 7.4, with: p-nitrophenol substrate): 3.3 ± 0.1 µM
O=C(O)c1cccc(SCc2cccc(Nc3ncc4c(-c5ccc(N6CCOCC6)cc5)[nH]nc4n3)c2)c1  Ki (Unconventional myosin-Va (Gallus gallus, UniProt Q02440); ATPase activity; two-headed construct with light chains): 5.5 ± 2.4 µM
Nc1nc2c(c(=O)[nH]1)C[C@@H](CCc1ccc(C(=O)N[C@@H](CCC(=O)O)C(=O)O)cc1)CN2  Ki (SHMT1; enzyme activity, absorbance; pH 7.2): 23 µM
Cc1ccc(S(=O)(=O)N/N=C\C=C\c2ccccc2)cc1  Ki (Replicase polyprotein 1ab, main protease (Feline coronavirus, UniProt Q98VG9); enzyme activity, inhibitor, fluorescence): 48.8 µM
CC(C)=CCC[C@@H](C)CC=O (racemic)  Ki (FLP; binding, fluorescence displacement; with: 1-NPN 2 µM): 0.19 µM
CCOC(=O)[C@@]1(CS)N[C@H](C(=O)O)C(C)(C)S1  Ki (sfhI; enzyme activity, inhibitor; pH 7.5, 30 °C, with: imipenem substrate): 100 ± 10 µM
Cc1cn([C@H]2C[C@H](O)[C@@H](CO)O2)c(=O)[nH]c1=O  Ki (uracil transporter; uracil uptake, inhibitor; Trypanosoma brucei brucei, bloodstream form; 30 s, with: 0.15 µM [3H]-uracil): > 10000 µM
CCCN(CCC1(O)CC(NC(=O)c2ccccc2OC)C1)[C@H]1CCc2nc(N)sc2C1 (stereo in doubt)  Ki (dopamine D2-like receptor, rat; radioligand binding; rat striatal membranes; high-affinity component, with: [3H]spiperone): 0.158 ± 0.025 µM
CCOC(=O)[C@]1(CS)N[C@H](C(=O)O)CS1  Ki (sfhI; enzyme activity, inhibitor; pH 7.5, 30 °C, with: imipenem substrate): 0.16 ± 0.03 µM
CCCCCCCCCCC=O  Ki (CYP2E1; competitive inhibitor; human liver S9; 30 min, pH 7.4, with: p-nitrophenol substrate): 117 ± 15 µM
O=C(O)c1cc(=O)[nH]c(=O)[nH]1  Ki (uracil transporter; uracil uptake, inhibitor; Trypanosoma brucei brucei, bloodstream form; 30 s, with: 0.15 µM [3H]-uracil): 630 ± 48 µM
CN(Cc1cnc2nc(N)nc(N)c2n1)c1ccc(C(=O)N[C@@H](CCC(=O)O)C(=O)O)cc1  Ki (SHMT1; enzyme activity, absorbance; pH 7.2): 201 µM
OC[C@H]1O[C@@H](n2cnc3c(NC(C4CCC4)C4CCC4)ncnc32)[C@H](O)C1O (stereo in doubt)  Ki (off-target receptors and transporters, human; radioligand binding; PDSP screen): > 1 µM
C[C@H]1O[C@@H](n2ccc(=O)[nH]c2=O)C[C@@H]1O  Ki (uracil transporter; uracil uptake, inhibitor; Trypanosoma brucei brucei, bloodstream form; 30 s, with: 0.15 µM [3H]-uracil): > 2500 µM
CCCN(CCC1(O)CC(NS(=O)(=O)c2ccccc2F)C1)[C@H]1CCc2nc(N)sc2C1 (stereo in doubt)  Ki (dopamine D2-like receptor, rat; radioligand binding; rat striatal membranes; high-affinity component, with: [3H]spiperone): 0.619 ± 0.068 µM
CCCCCc1cccc(O)c1C(=O)O  Ki (KAT8 (Homo sapiens, UniProt Q9H7Z6); enzyme activity, inhibitor; up to 400 µM, with: 4 µM acetyl-CoA, 60 µM histone substrate): no inhibition
CCCN(CCC1(O)CC(NS(=O)(=O)c2ccc(Cl)cc2)C1)[C@H]1CCc2nc(N)sc2C1 (stereo in doubt)  Ki (dopamine D2-like receptor, rat; radioligand binding; rat striatal membranes; high-affinity component, with: [3H]spiperone): 0.542 ± 0.079 µM
Nc1ncnc2c1ncn2[C@@H]1O[C@H](COP(=O)(O)OP(=O)(O)O)[C@@H](O)[C@H]1O  Kd (ATP1A1 (Sus scrofa, UniProt P05024); binding, radioligand binding; pig membranes; pH 7.7, 0 °C, ionic strength 378 mM, with: NaCl 319 mM): 3.35 ± 0.054 µM
Nc1ncnc2c1ncn2[C@@H]1O[C@H](COP(=O)(O)OP(=O)(O)O)[C@@H](O)[C@H]1O  Ki (Lrrk2; enzyme activity, inhibitor, radiometric; Ki,e, with: LRRKtide substrate varied): 100 ± 10 µM
CCCN(CC[C@]1(O)C[C@@H](NS(=O)(=O)c2cccc(Cl)c2)C1)[C@H]1CCc2nc(N)sc2C1 (relative stereo)  Ki (dopamine D2-like receptor, rat; radioligand binding; rat striatal membranes; high-affinity component, with: [3H]spiperone): 0.071 ± 0.0048 µM
CCOC(=O)C1(CCN2CCc3ccccc3C2)Cc2cc(Cl)ccc2C1=O (stereo not drawn)  Ki (HTR2A (Homo sapiens, UniProt P28223); ligand displacement, radioligand): 0.038 µM

Some of these lines once more:
Nc1ncnc2c1ncn2[C@@H]1O[C@H](COP(=O)(O)OP(=O)(O)NP(=O)(O)O)[C@@H](O)[C@H]1O  Ki (Lrrk2; enzyme activity, inhibitor, radiometric; Ki,e, with: LRRKtide substrate varied): 700 ± 100 µM
OB(O)c1ccc(/N=N/c2ccccc2)cc1  Ki (Calcium release-activated calcium channel protein 1, with STIM1 (ORAI1, Homo sapiens, UniProt Q96D31); CRAC current, inhibitor, whole-cell patch clamp; HEK293 expressing STIM1 and ORAI1): 131 ± 24 µM
Nc1ncnc2c1ncn2[C@@H]1O[C@H](COP(=O)(O)O)[C@@H](O)[C@H]1O  Ki (Lrrk2; enzyme activity, inhibitor): 2200 µM
OC1CCCc2cc(OCc3ccc(Cl)cc3)ccc21 (stereo not drawn)  Ki (MAOB (Homo sapiens, UniProt P27338); enzyme activity, inhibitor): 0.0065 µM
[Ca+2]  Ki (Cyclic nucleotide-gated channel alpha-2 (CNGA2, Bos taurus, UniProt Q03041); single-channel current, blocker, outside-out patch; wild type, -80 mV, with: cGMP 5 µM): 31 µM
CCCCCCC/C=C/C=O  Ki (CYP2E1; competitive inhibitor; human liver S9; 30 min, pH 7.4, with: p-nitrophenol substrate): 3.3 ± 0.1 µM
O=C(O)c1cccc(SCc2cccc(Nc3ncc4c(-c5ccc(N6CCOCC6)cc5)[nH]nc4n3)c2)c1  Ki (Unconventional myosin-Va (Gallus gallus, UniProt Q02440); ATPase activity; two-headed construct with light chains): 5.5 ± 2.4 µM
Nc1nc2c(c(=O)[nH]1)C[C@@H](CCc1ccc(C(=O)N[C@@H](CCC(=O)O)C(=O)O)cc1)CN2  Ki (SHMT1; enzyme activity, absorbance; pH 7.2): 23 µM
